# Measurements from different studies.
# Each numbered part is a random draw from the data of one study; scales do not carry over between parts.

# Block 1 — method: universal PBM; molecule type: double-stranded DNA, one strand shown; sample: in vitro; tested at: 600 nM; direction: higher = stronger binding
# Target: Sal-like protein 4, full length isoform A (SALL4, Homo sapiens, UniProt Q9UJQ4, residues 1-1053)
# Sequence of UniProt Q9UJQ4 (whole entry, looked up): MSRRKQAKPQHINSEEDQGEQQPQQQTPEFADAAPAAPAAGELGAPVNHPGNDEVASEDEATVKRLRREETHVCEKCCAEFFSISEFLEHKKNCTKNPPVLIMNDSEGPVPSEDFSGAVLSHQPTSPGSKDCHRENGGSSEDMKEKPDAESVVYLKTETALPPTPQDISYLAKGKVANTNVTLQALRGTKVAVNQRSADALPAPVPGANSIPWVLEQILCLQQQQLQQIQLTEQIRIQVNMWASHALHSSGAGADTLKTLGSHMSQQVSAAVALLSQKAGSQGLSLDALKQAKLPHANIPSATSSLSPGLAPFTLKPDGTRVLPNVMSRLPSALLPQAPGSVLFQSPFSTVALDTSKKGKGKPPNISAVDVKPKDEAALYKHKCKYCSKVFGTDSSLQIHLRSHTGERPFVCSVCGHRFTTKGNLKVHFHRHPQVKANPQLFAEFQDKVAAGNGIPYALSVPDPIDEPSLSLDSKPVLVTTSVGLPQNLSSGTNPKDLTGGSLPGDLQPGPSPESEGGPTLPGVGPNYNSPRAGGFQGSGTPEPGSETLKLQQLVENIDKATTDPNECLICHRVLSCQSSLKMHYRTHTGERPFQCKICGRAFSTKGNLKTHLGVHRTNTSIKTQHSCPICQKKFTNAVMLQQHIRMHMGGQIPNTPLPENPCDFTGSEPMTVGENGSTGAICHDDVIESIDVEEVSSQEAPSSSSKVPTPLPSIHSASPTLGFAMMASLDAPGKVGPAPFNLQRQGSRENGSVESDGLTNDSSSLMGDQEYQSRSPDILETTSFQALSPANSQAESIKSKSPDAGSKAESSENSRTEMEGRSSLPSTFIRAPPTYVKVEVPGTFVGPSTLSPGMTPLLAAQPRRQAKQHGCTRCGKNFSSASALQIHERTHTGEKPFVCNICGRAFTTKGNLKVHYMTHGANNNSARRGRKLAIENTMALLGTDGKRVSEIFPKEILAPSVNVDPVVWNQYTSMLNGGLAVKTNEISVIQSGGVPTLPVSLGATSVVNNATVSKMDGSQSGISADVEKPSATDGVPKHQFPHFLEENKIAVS
# Setting: 8-mer, flanks averaged, mean of replicates
Sequence,E-score
ACTAGATC,0.0479
GCGCAGAA,-0.156
GCAATACA,0.159
AATCCTAA,0.0878
TGCTCTAA,0.0112
AGAGTTCC,-0.279
CGTCCCAA,-0.197

# Block 2 — method: protein binding microarray; molecule type: double-stranded DNA, one strand shown; sample: in vitro; tested at: not given; reference: not given; direction: higher = stronger binding
# Target: Histone acetyltransferase KAT6A, winged helix 1, GST fusion (KAT6A, Homo sapiens, UniProt Q92794, residues 1-85)
# Setting: 8-mer, flanks averaged, mean of 2 arrays, mostly near background
# Target sequence (chain): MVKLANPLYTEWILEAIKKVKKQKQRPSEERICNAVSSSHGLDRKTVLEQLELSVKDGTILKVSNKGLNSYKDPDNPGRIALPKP
Sequence,E-score
GGCGCAAA,0.256
CCACCGCC,0.217
ACGCGCCG,0.41
ACGGTTGC,0.268
ATTGTGAA,-0.0756
AATCAGTG,-0.233
GTGAACAA,-0.0469
CTATGCGC,0.35

# Block 3 — method: protein-binding microarray; molecule type: double-stranded DNA, one strand shown; sample: in vitro; tested at: 250 nM; setting: 60-bp whole probe; added: salmon DNA 0.4 mg/ml; reference: random background probes; direction: higher = stronger binding; all sequences stand within: GCCTAGCAC … GTCTTGATTCGCTTGACGCTGCTG
# Target: Interferon regulatory factor 5, full length, phosphomimetic (IRF5, Homo sapiens, UniProt Q13568-2, residues 1-514, K96S/S451D/S453D/S456D/S462D)
Sequence,log fluorescence [z-score]
GACGGTTTCGGTATCGGGGCGTGCTAG,9.6
GATGGTATCGACTATCGGGACGTGCTA,4.79
AGGAATTTCCCACTTTCAGTGTGCTAG,3.64
TTAGGTCTACTTCTCCTTTAGTGCTAG,-0.0769
TTAGATCCCAGACTGGATTAGTGCTAG,-0.284

# Mixed results
Substance,target,assay,system,setting,how to read,measurement,value
"PhoQ, residues 284 288 289 292 302 303 GNNTDL","PhoP, residues 12 14 15 18 19 TPWLV (Escherichia coli, UniProt P23836)","Sort-seq, refers to: YFP reporter",E. coli,"PhoQ-PhoP variant library, added: 10 µM Mg2+","reference: high Mg2+ state, higher = stronger signaling",fold induction,6.38

# Some of these lines once more (block 1):
Sequence,E-score
GCAATACA,0.159
AATCCTAA,0.0878
